Experimental data gathered from unrelated publications.
A part holds a random share of what one study measured.

Set 1
Partner: Histone H2B type 1-C/E/F/G/I (Homo sapiens, UniProt P62807)
Method: cross-linking MS
Notes: hits only
For `HMGA1 (Homo sapiens, UniProt P17096)`, interaction screen read “cross-linked”.
`PPM1G (Homo sapiens, UniProt O15355)`: interaction screen “cross-linked”.
`H1-4 (Homo sapiens, UniProt P10412)` — result for interaction screen: “cross-linked”.

Set 2
Target: RNA binding protein fox-1 homolog 2, RRM domain, GST-SBP tag (RBFOX2, Homo sapiens, UniProt O43251-10, residues 100-194)
Method: RNA Bind-n-Seq
Molecule type: RNA
Medium: in vitro
Tested at: 365 nM
Notes: natural RNA segment, single round, ends assumed
Relative to: no-protein control
Direction: higher = stronger binding
`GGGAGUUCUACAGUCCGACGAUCUCAAGGUCAGGGUCAGCCCCAGCUGUGGCAGAGAAGACUCAAGUCUGGUGCCUGGCCUCUGCACUGUCUGGAGCAUGAUCAGAAUCCACGGUGUAUCCUGGCUUUAGGGGUGGAAUUCUCGGGUGCCAA` — result for “RBNS enrichment (R)”: 1.41.
`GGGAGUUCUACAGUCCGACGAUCCAAAUUGUGCUAUUACUCCAAGGUCCAACUUUUCCAGUGCAUUACAUGGUAUUGUAUAUCAGUGGAGAAAUGUAUUAUUUCCAUGAUCAAAUGUAGUCUCUGUUAAGGUCUGGAAUUCUCGGGUGCCAA`: “RBNS enrichment (R)” 0.834.
For `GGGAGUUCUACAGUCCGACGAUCGAGGGCCUGCCGUGACGCUCAGUGGAGAGGGCAGGGCCUGUGUCUCCACUUAGGCCACACAGUGAUGAGGAAACCACAGAUGGAGCUUCUUGCCGAUAAUACUGACUCUAUGGAAUUCUCGGGUGCCAA`, “RBNS enrichment (R)” read 1.14.
`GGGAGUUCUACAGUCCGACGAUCUGGGAGUGGGUCCGCGCUGCUCUGCAGCAGGGGCUGGGGAGUGGACAGCAUCAGGUGGGAAAGUGGAGUCCACCCUCAUGUUUCUGUAGGAUUCUCACCGUGGGGCUGGAUGGAAUUCUCGGGUGCCAA` — result for “RBNS enrichment (R)”: 0.879.
For `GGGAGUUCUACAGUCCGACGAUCAACUCCUCCCUUUUAUCUUCUAGCCACAGUUCUAAGACCCAAAGUGGGGGGUGGACACAGAAGUCCCUAGGAGGGAAGGAGCUGUUGGGGCAGGGGUGUAAAUUAUUUCCUGGAAUUCUCGGGUGCCAA`, “RBNS enrichment (R)” read 0.504.
`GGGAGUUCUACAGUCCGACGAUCUCAAAAGAAUACAUAGACUGGACACGAAGCUCAAAGGUAGAGUUCGCCUAGCAUGCAUACGAAGCCUGGAUCCCAUAUCCCAGCAGGGCAAACCAAUUGCCUCAGGCUAUUGGAAUUCUCGGGUGCCAA`: “RBNS enrichment (R)” 5.88.
`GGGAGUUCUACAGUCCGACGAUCCUUUACUCUGUGAUUUCAGGUUCUAACAACAUGGCCUGUCGUUUUAUUUUAAAAGUUCCUGCUGUUCUUUACAAAUCCAGUUCUGAGGUGCAGGCCACCAACAGCAGCGUUGGAAUUCUCGGGUGCCAA`: “RBNS enrichment (R)” 0.454.

Set 3
Target: Histone acetyltransferase KAT6A, both winged helices, GST fusion (KAT6A, Homo sapiens, UniProt Q92794, residues 1-181)
Method: protein binding microarray
Molecule type: double-stranded DNA, one strand shown
Medium: in vitro
Tested at: not given
Notes: 8-mer, flanks averaged, mean of 2 arrays, mostly near background
Relative to: not given
Direction: higher = stronger binding
Residues (chain): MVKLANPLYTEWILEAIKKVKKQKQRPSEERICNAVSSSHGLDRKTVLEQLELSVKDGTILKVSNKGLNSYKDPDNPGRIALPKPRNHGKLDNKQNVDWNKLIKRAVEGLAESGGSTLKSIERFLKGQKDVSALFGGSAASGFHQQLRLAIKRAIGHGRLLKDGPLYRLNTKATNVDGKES
`AATTGTAT` has an E-score of -0.116.
With `AATATTGG` the E-score was -0.129.
With `CACATCAC` the E-score was -0.0307.
The E-score of `AGAATAGC` is reported as 0.0183.
The E-score of `ACTTAACA` is reported as -0.121.

Mixed results
The fold induction of `PhoQ, residues 284 288 289 292 302 303 ALAMYF` is reported as 1.64 (PhoP, residues 12 14 15 18 19 AGCRL (Escherichia coli, UniProt P23836); Sort-seq, item: YFP reporter; E. coli; PhoQ-PhoP variant library, together with: 10 µM Mg2+; relative to: high Mg2+ state, higher = stronger signaling).

For quick reference, copied from above (set 1):
`PPM1G (Homo sapiens, UniProt O15355)`: interaction screen “cross-linked”.
`H1-4 (Homo sapiens, UniProt P10412)` — result for interaction screen: “cross-linked”.
